Results gathered from unrelated publications.
Each line is one published result; not all experiments were run side by side. ± gives the spread as reported.

With CC(C)=CCc1cc(-c2coc3cc(O)c(CC=C(C)C)c(O)c3c2=O)ccc1O the viability was 33.8% (SW480; cell growth or viability, MTT; 50 µg/mL).
For O=C(OCc1cccc(O)c1O)c1ccc(O)c(CO)c1, cytotoxicity read “not toxic” (HPMEC; 20 µM, 48 h).
CCC(=O)N(C)c1ccc(Cl)c(Cl)c1: “cells with multiple aberrations” 0% (CHO-WBL; 0.063 mg/mL, 3 h, with S9 activation).
With COc1cccc2c1C(=O)c1c(O)c3c(c(O)c1C2=O)CC(O)(C(=O)CO)CC3OC1CC(NC(=O)C[C@H](N)C(=O)O)C(O)C(C)O1 (some centres unmarked) the cellular uptake was about 3.5 fold (HepG2 (LAT1-positive); HPLC; serum-free medium; 2 h; reference: doxorubicin).
For CC1(C)CCC2(CO)C(=C3C=CC4[C@@]5(C)CCC(O)[C@@](C)(CO)C5CC[C@@]4(C)[C@]3(C)C[C@H]2O)C1 (some centres unmarked), the efflux ratio was 0.01 (Caco-2 monolayer; 10 µM, 3 h; reference: Papp B-A over Papp A-B).
For OC(Cc1cc(-c2ccc(C(O)C(F)(F)F)s2)sc1-c1ccc(-c2sc(-c3ccc(C(O)C(F)(F)F)s3)cc2CC(O)C(F)(F)F)s1)C(F)(F)F (centres unmarked), the cellular uptake was 10% (primary human fetal cortical neurons; LC-MS/MS; 4 µM, 2 h; reference: applied).
For O=C(O)C1OC(Oc2cccc(-c3cc(=O)c4ccccc4o3)c2)C(O)C(O)C1O (centres unmarked), “intracellular glucuronide concentration” read 56.7 ± 4.9 µM (HeLa-UGT1A9 cells; 15 µM aglycone loading, end of excretion).
The recovery of CC1(C)CCC23COC4(C=CC5C6(C)CCC(O)C(C)(CO)C6CCC5(C)C4(C)CC2O)C3C1 (centres unmarked) is reported as 85.5% (Caco-2 monolayer; 10 µM, 3 h, 37 °C, basolateral to apical).
O=C(Nc1ccc2c(c1)CN(c1ccc(Cl)c(Cl)c1)C2=O)N1CCN(c2ccccc2)CC1 gave an IC50 of over 64 µM (primary peritoneal mouse macrophages; cytotoxicity; 5% fetal calf serum).
Cc1c(C)c(C)[c-](C)c1C.O=C1c2cccc[n+]2[Ir]([Cl])[N]1c1ccccc1 — result for “cellular iridium uptake”: 46 ng/10⁶ cells (NIH3T3; ICP-MS; 10 µM, 24 h).
Under “absorptive permeability ratio”, CC(C)(C)NC(=O)[C@@H]1C[C@@H]2CCCC[C@@H]2CN1C[C@@H](OC(=O)CCC(=O)OC[C@H](O)[C@H]1OC(=O)C(O)=C1O)[C@H](Cc1ccccc1)NC(=O)[C@H](CC(N)=O)NC(=O)c1ccc2ccccc2n1 is recorded as 4.7 fold (Caco-2 monolayer; reference: compound over saquinavir).
For CC(=O)N[C@H](C(=O)N[C@H](C(=O)N[C@@H](CCCNC(=N)N)C(=O)N1Cc2ccccc2C[C@H]1C(=O)N[C@@H](Cc1ccccc1)C(N)=O)C1CCCCC1)C(C)C, the cytokine level was 2.7 ± 1.2 pg/mL (human PBMC; Bio-Plex multiplex, refers to: FGF; 500 µg/mL, 24 h).
Under “concentration stopping beating”, [2H]C(N)(COc1cc(C(F)(F)F)cc(C(F)(F)F)c1)c1ccccc1 (centres unmarked) is recorded as 66 µM (normal iPSC-derived cardiomyocytes; kinetic imaging cytometry).
The IC50 of CC(=O)[O-].Nc1ccc(C([O-])=NN=Cc2ccc(OCC(=O)Nc3ccc(Cl)cc3)cc2)cc1.O.O.O.[Cu+2] is reported as 31.4 ± 2.6 µg/mL (HeLa; cytotoxicity, MTT; 24 h).
Under “intracellular glucuronide concentration”, O=C(O)C1OC(Oc2ccc(-c3cc(=O)c4ccccc4o3)cc2)C(O)C(O)C1O (centres unmarked) is recorded as 72 ± 25.1 µM (HeLa-UGT1A9 cells; 20 µM aglycone loading, end of excretion).
The inhibition of Cn1c(=O)c(=O)n(C)c2cc(S(=O)(=O)Nc3ccc(S(=O)(=O)Nc4ncccn4)cc3)ccc21 is reported as 10% (hTERT-RPE1; cell viability, MTT; concentration not given).
CC(C)=CCc1c2c(c(O)c3c(=O)c(-c4ccc(O)cc4)coc13)CC(C(C)(C)O)O2 (centres unmarked) has a viability of 9.03% (SW480; cell growth or viability, MTT; 25 µg/mL).
With CCC1=C(CC)C2=[N+]3C1=Cc1c(CC)c(CC)c4[n]1[Ir-3]31([n+]3ccccc3)([n+]3ccccc3)[n]3c(c(CC)c(CC)c3=CC3=[N+]1C(=C4)C(CC)=C3CC)=C2.[Cl-] the cellular uptake was 305 ± 57.2 µg iridium/g protein (NCI-H460; ICP-MS; 1 µM, 2 h).
COc1ccc([C@@H]2CC(=O)c3c(O)cc(O[C@@H]4O[C@H](CO[C@@H]5O[C@@H](C)[C@H](O)[C@@H](O)[C@H]5O)[C@@H](O[C@H]5O[C@H](CO)[C@@H](O)[C@H](O)[C@H]5O)[C@H](O)[C@H]4O)cc3O2)cc1O has a viability of 55.2% (MRC5; cell growth or viability, MTS; 100 µg/mL, 24 h).
With CCN(Cc1cccc(S(=O)(=O)O)c1)c1ccc(C(=C2C=CC(=[N+](CC)Cc3cccc(S(=O)(=O)[O-])c3)C=C2)c2ccccc2)cc1 the selectivity index was 100 fold (MT2; reference: median CC50 over median IC50).
With COc1ccc(-c2coc3c(CC=C(C)C)c(O)c(CC=C(C)C)c(O)c3c2=O)cc1O the viability was 83.2% (SW480; cell growth or viability, MTT; 12.5 µg/mL).
O=C(O)C1OC(Oc2c(-c3ccccc3O)oc3ccccc3c2=O)C(O)C(O)C1O (centres unmarked): “intracellular glucuronide concentration” 21.4 ± 2.07 µM (HeLa-UGT1A9 cells; refers to: 3-O-glucuronide; 0.625 µM aglycone loading, end of excretion).
CCC(C)C(N)C(=O)OC(C)OC(=O)C1=CC(N=C(N)N)C(NC(C)=O)C(C(O)C(O)CO)O1 (mixture of isomers): “apparent permeability ratio” over 2 fold (Caco-2 monolayer; apical to basolateral; reference: zanamivir).
Cc1ccccc1C(c1c[nH]c(=O)[nH]c1=O)c1c[nH]c(=O)[nH]c1=O — result for cytotoxicity: “not toxic” (Mo7e; 1 µg/mL).
O=C(CCC(=O)NCCS(=O)(=O)O)NCCNC(=O)[C@@H](Cc1ccccc1)NC(=O)[C@@H](Cc1ccccc1)NC(=O)CCNc1ccc([N+](=O)[O-])c2nonc12 has an intracellular concentration of 800 µM (HeLa; 200 µM, 24 h).
For O=C(O)C1OC(Oc2ccc3c(=O)cc(-c4ccccc4)oc3c2)C(O)C(O)C1O (centres unmarked), “intracellular glucuronide concentration” read 142 ± 22.2 µM (HeLa-UGT1A9 cells; 15 µM aglycone loading, end of excretion).
Under cytotoxicity, COc1ccc(/C=C/C(=O)c2ccccc2)cc1OC is recorded as “toxic” (K562 transfected; concentration not given, added: TNF-alpha).
For O=C(O)C1OC(Oc2ccc3oc(-c4ccccc4)cc(=O)c3c2)C(O)C(O)C1O (centres unmarked), “intracellular glucuronide concentration” read 111 ± 15.8 µM (HeLa-UGT1A9 cells; 20 µM aglycone loading, end of excretion).
For COc1cc2c(cc1O)[C@]1(O)C(=O)c3c(O)cc4c(c3O[C@@H]1CO2)C=CC(C)(C)O4, the viability was 6.03% (SW480; cell growth or viability, MTT; 100 µg/mL).
The Papp of Cc1cc(O)cc(O)c1C(=O)c1c2c3c(c(O)cc(C)c3oc1=O)C(=O)c1c(O)cc(O)cc1-2 is reported as 0.58 to 2.91 ×10⁻⁶ cm/s (Caco-2 monolayer; 50 to 400 µM, 180 min, pH 7.4, apical to basolateral).
For Cn1cc[n+](C)[c]1[Ir-3]123([c]4n(C)cc[n+]4C)[n]4c5ccc4C(c4c(F)c(F)c(F)c(F)c4F)=C4C=CC(=[N+]41)C(c1c(F)c(F)c(F)c(F)c1F)=c1ccc([n]12)=C(c1c(F)c(F)c(F)c(F)c1F)C1=[N+]3C(=C5c2c(F)c(F)c(F)c(F)c2F)C=C1.O=S(=O)([O-])C(F)(F)F, the cellular uptake was 131 ± 10.2 µg iridium/g protein (NCI-H460; ICP-MS; 1 µM, 2 h).
O=C(O)C1OC(Oc2c(-c3ccccc3)oc3cc(O)ccc3c2=O)C(O)C(O)C1O (centres unmarked) — result for “intracellular glucuronide concentration”: 1.93 ± 0.24 µM (HeLa-UGT1A9 cells; refers to: 3-O-glucuronide; 0.625 µM aglycone loading, end of excretion).
O=c1[nH]cc(C(c2cccc(C(F)(F)F)c2)c2c[nH]c(=O)[nH]c2=O)c(=O)[nH]1: cytotoxicity “not toxic” (Mo7e; 1 µg/mL).
O=C1N=C(O)SC1=Cc1ccc(-c2cccc(C(F)(F)F)c2)o1: “highest non-toxic concentration” 50 µM (IL-2 activated human PBMC; CellTiter-Glo; 48 h).
With CCCCn1cc(C(=O)O)c(=O)c2cc(F)c(N)c([N+](=O)[O-])c21 the IC50 was 432 µM (HT-29; cell growth or viability, SRB).

Repeated from above:
O=C1N=C(O)SC1=Cc1ccc(-c2cccc(C(F)(F)F)c2)o1: “highest non-toxic concentration” 50 µM (IL-2 activated human PBMC; CellTiter-Glo; 48 h).
For O=C(OCc1cccc(O)c1O)c1ccc(O)c(CO)c1, cytotoxicity read “not toxic” (HPMEC; 20 µM, 48 h).
